Assay results of several laboratories.
A part holds a random share of what one study measured.
Sequence of UniProt P53778 (whole entry, looked up): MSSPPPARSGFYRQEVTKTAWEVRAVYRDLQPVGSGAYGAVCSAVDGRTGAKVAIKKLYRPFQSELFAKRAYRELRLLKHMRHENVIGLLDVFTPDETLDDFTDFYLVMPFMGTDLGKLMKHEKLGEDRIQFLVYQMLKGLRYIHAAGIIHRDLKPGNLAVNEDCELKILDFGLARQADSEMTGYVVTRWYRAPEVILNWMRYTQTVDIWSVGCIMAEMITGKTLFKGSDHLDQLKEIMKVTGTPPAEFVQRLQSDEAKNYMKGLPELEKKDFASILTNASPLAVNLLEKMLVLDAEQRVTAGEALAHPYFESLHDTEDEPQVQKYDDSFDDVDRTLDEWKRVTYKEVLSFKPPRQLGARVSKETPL
Sequence of UniProt P42681 (whole entry, looked up): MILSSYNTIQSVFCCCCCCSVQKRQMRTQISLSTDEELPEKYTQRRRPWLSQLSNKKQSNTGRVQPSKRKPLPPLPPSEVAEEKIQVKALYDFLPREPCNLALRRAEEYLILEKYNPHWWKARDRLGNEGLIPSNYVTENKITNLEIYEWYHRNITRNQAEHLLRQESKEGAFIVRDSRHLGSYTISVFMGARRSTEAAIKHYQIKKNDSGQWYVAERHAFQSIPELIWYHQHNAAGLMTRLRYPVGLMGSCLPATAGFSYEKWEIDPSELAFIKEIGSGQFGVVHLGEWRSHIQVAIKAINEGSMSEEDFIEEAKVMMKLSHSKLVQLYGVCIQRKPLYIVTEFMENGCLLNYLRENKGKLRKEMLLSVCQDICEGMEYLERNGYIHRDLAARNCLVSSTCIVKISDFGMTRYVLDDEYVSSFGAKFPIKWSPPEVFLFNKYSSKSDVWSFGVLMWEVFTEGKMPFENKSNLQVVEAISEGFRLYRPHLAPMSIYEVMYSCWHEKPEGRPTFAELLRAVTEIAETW
Sequence of UniProt Q13237 (whole entry, looked up): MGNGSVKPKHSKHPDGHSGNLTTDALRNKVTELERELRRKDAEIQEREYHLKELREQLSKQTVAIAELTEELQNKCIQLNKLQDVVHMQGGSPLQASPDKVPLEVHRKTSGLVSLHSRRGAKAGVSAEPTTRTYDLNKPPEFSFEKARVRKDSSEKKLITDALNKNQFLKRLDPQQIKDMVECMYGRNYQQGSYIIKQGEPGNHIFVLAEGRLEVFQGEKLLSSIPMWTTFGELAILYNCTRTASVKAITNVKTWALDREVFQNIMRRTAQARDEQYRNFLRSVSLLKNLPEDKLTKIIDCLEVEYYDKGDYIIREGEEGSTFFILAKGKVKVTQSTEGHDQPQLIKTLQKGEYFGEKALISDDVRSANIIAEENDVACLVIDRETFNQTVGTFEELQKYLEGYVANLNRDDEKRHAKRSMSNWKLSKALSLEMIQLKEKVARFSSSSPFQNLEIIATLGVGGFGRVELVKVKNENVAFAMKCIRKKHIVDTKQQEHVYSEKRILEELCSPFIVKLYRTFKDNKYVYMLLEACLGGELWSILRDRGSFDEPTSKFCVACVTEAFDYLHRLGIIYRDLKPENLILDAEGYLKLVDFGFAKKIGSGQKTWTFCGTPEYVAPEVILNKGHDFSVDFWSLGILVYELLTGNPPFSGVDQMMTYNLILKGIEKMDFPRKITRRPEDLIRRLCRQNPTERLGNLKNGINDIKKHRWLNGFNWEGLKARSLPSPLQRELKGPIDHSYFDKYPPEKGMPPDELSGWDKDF
Sequence of UniProt P31751 (whole entry, looked up): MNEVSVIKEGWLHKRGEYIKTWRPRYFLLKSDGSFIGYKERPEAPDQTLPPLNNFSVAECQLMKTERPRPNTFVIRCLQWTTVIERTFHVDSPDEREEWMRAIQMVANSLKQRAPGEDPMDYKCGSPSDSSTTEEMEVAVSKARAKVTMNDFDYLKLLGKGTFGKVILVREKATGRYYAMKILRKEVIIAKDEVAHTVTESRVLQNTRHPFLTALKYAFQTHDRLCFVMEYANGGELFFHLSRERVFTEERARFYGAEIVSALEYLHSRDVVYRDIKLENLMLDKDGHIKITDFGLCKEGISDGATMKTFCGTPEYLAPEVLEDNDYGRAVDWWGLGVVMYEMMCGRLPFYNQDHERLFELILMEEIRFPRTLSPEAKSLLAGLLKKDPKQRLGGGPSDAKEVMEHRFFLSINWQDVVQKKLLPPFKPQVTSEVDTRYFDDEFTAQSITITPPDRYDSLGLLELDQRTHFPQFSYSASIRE
Sequence of UniProt P35968 (whole entry, looked up): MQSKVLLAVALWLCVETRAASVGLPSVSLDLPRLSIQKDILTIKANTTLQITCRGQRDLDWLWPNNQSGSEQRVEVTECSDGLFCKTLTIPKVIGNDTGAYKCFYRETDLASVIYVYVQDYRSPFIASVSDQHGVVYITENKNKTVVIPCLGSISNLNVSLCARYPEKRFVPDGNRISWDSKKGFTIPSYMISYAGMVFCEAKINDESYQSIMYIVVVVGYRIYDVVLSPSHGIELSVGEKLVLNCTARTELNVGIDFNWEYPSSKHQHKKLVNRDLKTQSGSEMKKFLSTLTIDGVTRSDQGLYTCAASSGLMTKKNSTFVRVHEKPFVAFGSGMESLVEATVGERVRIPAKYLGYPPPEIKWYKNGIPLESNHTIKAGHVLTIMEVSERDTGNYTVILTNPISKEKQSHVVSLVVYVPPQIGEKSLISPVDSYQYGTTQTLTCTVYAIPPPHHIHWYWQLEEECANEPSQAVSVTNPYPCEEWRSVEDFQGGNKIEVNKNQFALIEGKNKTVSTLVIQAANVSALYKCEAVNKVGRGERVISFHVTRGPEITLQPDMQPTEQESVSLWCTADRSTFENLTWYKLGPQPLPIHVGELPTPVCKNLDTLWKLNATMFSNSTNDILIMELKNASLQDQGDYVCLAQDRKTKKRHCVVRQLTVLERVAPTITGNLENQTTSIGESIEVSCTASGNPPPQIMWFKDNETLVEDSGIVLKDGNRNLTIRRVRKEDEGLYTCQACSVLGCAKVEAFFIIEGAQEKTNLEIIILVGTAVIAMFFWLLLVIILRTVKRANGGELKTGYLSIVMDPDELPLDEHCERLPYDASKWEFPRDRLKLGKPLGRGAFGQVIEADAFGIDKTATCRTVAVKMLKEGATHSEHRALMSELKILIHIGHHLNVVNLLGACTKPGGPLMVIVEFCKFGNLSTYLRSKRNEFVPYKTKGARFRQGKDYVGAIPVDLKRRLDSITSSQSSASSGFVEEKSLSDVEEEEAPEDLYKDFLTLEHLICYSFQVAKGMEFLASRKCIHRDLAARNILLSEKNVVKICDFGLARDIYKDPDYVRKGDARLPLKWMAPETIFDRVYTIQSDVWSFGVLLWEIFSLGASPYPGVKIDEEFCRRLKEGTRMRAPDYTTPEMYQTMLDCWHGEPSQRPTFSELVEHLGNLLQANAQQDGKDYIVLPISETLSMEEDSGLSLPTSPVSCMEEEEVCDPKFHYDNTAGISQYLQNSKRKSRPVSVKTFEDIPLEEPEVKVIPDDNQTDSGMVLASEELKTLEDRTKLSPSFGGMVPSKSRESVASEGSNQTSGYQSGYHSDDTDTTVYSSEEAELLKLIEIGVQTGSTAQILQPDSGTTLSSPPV
Sequence of UniProt P07333 (whole entry, looked up): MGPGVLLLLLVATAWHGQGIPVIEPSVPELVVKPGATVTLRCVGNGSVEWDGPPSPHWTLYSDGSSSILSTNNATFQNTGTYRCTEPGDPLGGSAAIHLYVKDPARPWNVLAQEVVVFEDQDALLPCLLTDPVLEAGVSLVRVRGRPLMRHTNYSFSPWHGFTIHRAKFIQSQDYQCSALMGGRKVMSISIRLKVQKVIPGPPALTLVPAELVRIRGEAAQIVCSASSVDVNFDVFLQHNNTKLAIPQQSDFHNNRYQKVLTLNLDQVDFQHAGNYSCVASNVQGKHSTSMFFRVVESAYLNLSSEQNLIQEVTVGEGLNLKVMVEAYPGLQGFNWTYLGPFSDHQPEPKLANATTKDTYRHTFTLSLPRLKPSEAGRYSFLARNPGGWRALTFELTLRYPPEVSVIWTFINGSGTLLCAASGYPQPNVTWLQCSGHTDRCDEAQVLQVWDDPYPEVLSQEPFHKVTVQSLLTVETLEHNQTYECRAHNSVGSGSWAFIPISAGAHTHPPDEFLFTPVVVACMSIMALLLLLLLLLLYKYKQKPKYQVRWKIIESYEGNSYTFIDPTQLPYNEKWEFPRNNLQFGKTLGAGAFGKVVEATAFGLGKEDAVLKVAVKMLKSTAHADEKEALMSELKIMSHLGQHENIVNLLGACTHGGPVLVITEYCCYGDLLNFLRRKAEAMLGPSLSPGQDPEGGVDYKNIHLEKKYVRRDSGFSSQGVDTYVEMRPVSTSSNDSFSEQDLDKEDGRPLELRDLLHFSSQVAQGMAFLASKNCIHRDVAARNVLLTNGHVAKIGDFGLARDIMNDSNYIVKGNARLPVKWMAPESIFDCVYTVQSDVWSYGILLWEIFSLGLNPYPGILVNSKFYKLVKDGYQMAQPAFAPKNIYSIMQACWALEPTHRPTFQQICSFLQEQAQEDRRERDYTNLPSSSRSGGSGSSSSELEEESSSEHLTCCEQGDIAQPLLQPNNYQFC
Sequence of UniProt P32298 (whole entry, looked up): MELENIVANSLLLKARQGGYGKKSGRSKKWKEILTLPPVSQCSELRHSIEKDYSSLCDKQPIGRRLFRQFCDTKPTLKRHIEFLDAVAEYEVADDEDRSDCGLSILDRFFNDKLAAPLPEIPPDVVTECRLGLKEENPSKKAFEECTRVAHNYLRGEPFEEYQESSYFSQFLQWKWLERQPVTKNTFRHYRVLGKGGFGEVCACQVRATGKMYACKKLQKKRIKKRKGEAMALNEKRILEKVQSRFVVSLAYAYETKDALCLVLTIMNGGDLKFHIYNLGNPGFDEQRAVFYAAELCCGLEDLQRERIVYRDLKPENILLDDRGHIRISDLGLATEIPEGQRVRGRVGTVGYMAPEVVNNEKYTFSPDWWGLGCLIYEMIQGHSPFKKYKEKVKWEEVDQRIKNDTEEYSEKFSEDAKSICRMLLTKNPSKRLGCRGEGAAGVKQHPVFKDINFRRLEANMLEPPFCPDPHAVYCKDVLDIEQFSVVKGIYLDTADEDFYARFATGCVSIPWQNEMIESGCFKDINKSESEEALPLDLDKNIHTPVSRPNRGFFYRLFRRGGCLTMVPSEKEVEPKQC

Set 1
SMILES: c1ccc2c(-c3ccncc3)c[nH]c2c1
Read-out: enzyme activity
Mode: inhibitor
Tested at: 0.5 µM
Baseline: control
target	remaining activity [%]
Dual specificity mitogen-activated protein kinase kinase 1 (MAP2K1, Homo sapiens, UniProt Q02750)	96.5
Mitogen-activated protein kinase 11 (MAPK11, Homo sapiens, UniProt Q15759)	112
Dual specificity protein kinase CLK4 (CLK4, Homo sapiens, UniProt Q9HAZ1)	101
RAC-beta serine/threonine-protein kinase (AKT2, Homo sapiens, UniProt P31751)	96.4
Calcium/calmodulin-dependent protein kinase type IV (CAMK4, Homo sapiens, UniProt Q16566)	101
Mitogen-activated protein kinase 1 (MAPK1, Homo sapiens, UniProt P28482)	100
cGMP-dependent protein kinase 2 (PRKG2, Homo sapiens, UniProt Q13237)	38.3
Serine/threonine-protein kinase Nek3 (NEK3, Homo sapiens, UniProt P51956)	91.6
Tyrosine-protein kinase TXK (TXK, Homo sapiens, UniProt P42681)	104
G protein-coupled receptor kinase 4 (GRK4, Homo sapiens, UniProt P32298)	94.9
Serine/threonine-protein kinase DCLK2 (DCLK2, Homo sapiens, UniProt Q8N568)	98.1
Vascular endothelial growth factor receptor 2 (KDR, Homo sapiens, UniProt P35968)	94.2
Serine/threonine-protein kinase MARK2 (MARK2, Homo sapiens, UniProt Q7KZI7)	102
Calcium/calmodulin-dependent protein kinase type 1B (PNCK, Homo sapiens, UniProt Q6P2M8)	98.5

Set 2
Host: mouse
Sample: microsomes or S9
Tested at: 2 µM
Time: 0.5 h
SMILES	remaining compound [%]
Cn1nnnc1NC(=O)c1ccc(C(F)(F)F)nc1N1CCC(C#N)(c2ccccc2)CC1	81.4
CC(=O)N1CCN(C(=O)Cn2nc(C)c(C)c2C)CC(O)C1 (stereo not shown)	24.7
CC(C)CC1(C(=O)N2CCC(N(C)CC(=O)O)CC2)CCCC1	82.9
CCOC(=O)C1CCN(Cc2nc(N)nc(Nc3ccc(C)cc3)n2)c2ccccc21 (stereo not shown)	0.705
O=C(CC(c1ccccc1)c1ccccc1)N1CCOCC1	22.1
CC(C)CCn1cc(C(=O)Nc2cccc3[nH]ccc23)c2ccccc2c1=O	25.7
COc1cc(=O)[nH]cc1C(=O)N1CCCCC1c1cc[nH]n1 (stereo not shown)	97.4

Set 3
SMILES: O=C(O)[C@@H]1[C@@H](Cn2nnc3ccccc3c2=O)CC[C@H]1C(=O)c1ccc(OCCC2CCOCC2)cc1
Read-out: cell-free assay
Technique: competition with immobilised ligand
Tested at: 1 µM
target	remaining binding [%]
Macrophage colony-stimulating factor 1 receptor (CSF1R, Homo sapiens, UniProt P07333)	100
Homeodomain-interacting protein kinase 2 (HIPK2, Homo sapiens, UniProt Q9H2X6)	100
Epidermal growth factor receptor (EGFR, Homo sapiens, UniProt P00533, del747-750/T751S)	58
Mitogen-activated protein kinase kinase kinase 3 (MAP3K3, Homo sapiens, UniProt Q99759)	100
Interleukin-1 receptor-associated kinase 3 (IRAK3, Homo sapiens, UniProt Q9Y616)	100
Casein kinase II subunit alpha (CSNK2A1, Homo sapiens, UniProt P68400)	87
Mitogen-activated protein kinase 12 (MAPK12, Homo sapiens, UniProt P53778)	100

Set 4
SMILES: CC(C)n1cnc(-c2ccc(F)cc2)c1-c1ncc(C(=O)Nc2ccc(N3CCN(C)CC3)cc2)[nH]1
Technique: phase 2a clinical trial
Host: patients with idiopathic pulmonary fibrosis
assay	setting	patients with treatment-emergent adverse events
item: investigations (SOC)	60 mg once daily, Grade 4	0%
item: left ventricular dysfunction	60 mg once daily, Grade 5	0%
item: benign prostatic hyperplasia	60 mg once daily, Grade 5, maximum intensity	0%
item: drug-induced liver injury	30 mg once daily, Grade 3	0%
item: investigations (SOC)	60 mg once daily, Grade 5	0%
item: interstitial lung disease	30 mg once daily, Grade 4	0%

For quick reference, copied from above (set 3):
target	remaining binding [%]
Interleukin-1 receptor-associated kinase 3 (IRAK3, Homo sapiens, UniProt Q9Y616)	100
Epidermal growth factor receptor (EGFR, Homo sapiens, UniProt P00533, del747-750/T751S)	58
Macrophage colony-stimulating factor 1 receptor (CSF1R, Homo sapiens, UniProt P07333)	100
